# Results pooled from the literature.
# Each numbered part is a random draw from the data of one study; scales do not carry over between parts.
# Chain of UniProt P31645 (whole entry, looked up): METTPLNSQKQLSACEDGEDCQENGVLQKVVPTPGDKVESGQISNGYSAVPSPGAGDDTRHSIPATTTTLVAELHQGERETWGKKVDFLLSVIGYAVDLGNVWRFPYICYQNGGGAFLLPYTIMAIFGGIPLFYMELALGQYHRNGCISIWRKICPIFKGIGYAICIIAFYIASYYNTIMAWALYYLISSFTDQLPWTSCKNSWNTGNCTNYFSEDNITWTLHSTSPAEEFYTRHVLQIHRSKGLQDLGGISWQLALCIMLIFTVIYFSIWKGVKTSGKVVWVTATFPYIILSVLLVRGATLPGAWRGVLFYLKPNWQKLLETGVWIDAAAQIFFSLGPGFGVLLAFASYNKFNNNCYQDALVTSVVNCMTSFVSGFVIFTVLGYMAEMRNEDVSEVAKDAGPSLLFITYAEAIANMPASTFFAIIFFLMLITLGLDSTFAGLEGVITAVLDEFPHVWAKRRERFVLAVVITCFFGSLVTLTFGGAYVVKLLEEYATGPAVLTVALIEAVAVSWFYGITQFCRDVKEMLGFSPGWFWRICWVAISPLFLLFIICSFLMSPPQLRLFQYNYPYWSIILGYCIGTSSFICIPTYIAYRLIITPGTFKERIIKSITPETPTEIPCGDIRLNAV
# Chain of UniProt P28335 (whole entry, looked up): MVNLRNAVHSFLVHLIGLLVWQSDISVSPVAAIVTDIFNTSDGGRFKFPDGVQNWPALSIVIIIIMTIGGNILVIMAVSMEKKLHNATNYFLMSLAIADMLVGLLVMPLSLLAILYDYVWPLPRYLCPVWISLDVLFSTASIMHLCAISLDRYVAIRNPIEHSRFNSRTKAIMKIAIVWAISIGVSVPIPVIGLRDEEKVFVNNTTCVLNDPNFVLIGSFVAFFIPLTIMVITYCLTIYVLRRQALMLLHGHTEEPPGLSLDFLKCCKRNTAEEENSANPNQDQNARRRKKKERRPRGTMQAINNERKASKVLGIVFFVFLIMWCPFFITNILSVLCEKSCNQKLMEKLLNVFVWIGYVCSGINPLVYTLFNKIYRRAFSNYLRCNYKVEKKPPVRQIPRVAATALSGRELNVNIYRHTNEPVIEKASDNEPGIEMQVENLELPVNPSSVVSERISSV
# Chain of UniProt P20309 (whole entry, looked up): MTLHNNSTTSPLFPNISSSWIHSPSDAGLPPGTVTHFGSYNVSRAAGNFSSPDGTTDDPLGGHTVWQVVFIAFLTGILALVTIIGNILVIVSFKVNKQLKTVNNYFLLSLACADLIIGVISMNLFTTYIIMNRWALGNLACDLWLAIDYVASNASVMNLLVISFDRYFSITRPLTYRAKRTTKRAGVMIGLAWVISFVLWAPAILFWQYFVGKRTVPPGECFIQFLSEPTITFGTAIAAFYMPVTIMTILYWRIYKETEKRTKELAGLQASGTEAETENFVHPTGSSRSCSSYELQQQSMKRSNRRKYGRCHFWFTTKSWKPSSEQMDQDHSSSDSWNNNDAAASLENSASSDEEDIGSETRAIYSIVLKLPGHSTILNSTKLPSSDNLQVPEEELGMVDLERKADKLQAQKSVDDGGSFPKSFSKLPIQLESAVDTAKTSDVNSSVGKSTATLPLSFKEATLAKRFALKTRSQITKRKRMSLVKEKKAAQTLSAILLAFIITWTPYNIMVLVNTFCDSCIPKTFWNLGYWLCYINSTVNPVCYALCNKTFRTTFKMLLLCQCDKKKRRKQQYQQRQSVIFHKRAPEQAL
# Chain of UniProt Q8IWQ3 (whole entry, looked up): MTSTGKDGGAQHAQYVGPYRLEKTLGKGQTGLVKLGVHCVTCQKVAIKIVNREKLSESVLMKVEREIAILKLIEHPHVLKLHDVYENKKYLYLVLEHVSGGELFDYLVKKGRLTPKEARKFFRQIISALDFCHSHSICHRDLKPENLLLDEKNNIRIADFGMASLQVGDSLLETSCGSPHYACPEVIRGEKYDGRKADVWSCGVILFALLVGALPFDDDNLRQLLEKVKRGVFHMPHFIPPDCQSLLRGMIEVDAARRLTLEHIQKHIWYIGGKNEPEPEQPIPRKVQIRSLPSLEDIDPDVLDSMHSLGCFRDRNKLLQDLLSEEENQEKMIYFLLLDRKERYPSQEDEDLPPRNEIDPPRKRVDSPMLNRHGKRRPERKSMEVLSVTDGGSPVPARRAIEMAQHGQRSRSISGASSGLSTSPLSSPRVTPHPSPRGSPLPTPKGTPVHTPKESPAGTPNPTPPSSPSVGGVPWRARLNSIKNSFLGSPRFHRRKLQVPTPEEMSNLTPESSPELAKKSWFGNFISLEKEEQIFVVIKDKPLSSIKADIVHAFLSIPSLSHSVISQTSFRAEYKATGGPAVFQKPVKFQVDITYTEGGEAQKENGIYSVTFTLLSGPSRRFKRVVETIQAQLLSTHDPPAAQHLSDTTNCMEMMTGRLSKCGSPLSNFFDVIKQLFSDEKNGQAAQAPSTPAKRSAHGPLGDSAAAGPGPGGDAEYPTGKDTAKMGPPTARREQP
# Chain of UniProt Q06418 (whole entry, looked up): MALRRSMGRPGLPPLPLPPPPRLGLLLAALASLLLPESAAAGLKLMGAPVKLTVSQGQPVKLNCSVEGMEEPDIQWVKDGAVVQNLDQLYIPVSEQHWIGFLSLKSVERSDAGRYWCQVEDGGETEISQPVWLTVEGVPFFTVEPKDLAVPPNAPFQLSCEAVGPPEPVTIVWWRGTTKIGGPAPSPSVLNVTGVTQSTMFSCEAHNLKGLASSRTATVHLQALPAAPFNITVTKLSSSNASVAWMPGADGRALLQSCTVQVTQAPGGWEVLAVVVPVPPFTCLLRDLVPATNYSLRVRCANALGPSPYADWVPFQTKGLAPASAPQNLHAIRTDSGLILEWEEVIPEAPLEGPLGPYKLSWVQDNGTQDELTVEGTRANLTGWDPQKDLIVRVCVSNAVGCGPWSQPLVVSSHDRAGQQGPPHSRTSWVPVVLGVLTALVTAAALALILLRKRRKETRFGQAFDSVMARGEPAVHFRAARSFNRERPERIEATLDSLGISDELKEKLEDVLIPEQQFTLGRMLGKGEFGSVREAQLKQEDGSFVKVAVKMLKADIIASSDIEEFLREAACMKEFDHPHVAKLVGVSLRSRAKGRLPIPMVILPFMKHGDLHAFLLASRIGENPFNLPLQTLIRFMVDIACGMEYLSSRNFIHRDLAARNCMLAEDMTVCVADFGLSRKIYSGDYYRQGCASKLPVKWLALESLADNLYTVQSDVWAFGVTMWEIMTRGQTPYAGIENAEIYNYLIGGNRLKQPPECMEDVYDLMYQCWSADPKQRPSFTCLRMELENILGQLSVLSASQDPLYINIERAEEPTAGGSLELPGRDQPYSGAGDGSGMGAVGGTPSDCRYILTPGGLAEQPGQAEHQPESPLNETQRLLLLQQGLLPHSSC
# Chain of UniProt Q00535 (whole entry, looked up): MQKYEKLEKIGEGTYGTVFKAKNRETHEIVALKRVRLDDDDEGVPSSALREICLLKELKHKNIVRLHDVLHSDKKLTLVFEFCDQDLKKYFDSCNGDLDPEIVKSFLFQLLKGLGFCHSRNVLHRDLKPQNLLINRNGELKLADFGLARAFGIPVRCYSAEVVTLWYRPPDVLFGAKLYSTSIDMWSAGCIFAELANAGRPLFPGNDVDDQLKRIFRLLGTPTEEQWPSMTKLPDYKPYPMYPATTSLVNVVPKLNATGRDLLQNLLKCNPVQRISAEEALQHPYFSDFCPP
# Chain of UniProt Q01959 (whole entry, looked up): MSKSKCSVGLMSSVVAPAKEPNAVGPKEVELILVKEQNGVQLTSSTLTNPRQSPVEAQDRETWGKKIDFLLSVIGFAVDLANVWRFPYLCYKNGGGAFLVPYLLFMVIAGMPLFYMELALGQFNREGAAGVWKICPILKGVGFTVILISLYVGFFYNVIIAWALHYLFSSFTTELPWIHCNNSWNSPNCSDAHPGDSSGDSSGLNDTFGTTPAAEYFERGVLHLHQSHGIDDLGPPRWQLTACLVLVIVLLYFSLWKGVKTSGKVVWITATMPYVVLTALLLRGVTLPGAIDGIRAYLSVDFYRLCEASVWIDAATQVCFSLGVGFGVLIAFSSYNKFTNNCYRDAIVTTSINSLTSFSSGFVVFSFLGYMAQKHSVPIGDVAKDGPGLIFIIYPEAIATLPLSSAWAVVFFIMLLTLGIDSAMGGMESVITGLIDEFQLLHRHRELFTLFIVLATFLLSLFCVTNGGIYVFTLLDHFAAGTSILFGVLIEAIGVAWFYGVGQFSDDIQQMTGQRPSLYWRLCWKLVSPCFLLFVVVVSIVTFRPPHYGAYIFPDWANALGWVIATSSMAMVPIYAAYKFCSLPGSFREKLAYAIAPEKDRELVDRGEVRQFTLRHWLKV
# Chain of UniProt P41143 (whole entry, looked up): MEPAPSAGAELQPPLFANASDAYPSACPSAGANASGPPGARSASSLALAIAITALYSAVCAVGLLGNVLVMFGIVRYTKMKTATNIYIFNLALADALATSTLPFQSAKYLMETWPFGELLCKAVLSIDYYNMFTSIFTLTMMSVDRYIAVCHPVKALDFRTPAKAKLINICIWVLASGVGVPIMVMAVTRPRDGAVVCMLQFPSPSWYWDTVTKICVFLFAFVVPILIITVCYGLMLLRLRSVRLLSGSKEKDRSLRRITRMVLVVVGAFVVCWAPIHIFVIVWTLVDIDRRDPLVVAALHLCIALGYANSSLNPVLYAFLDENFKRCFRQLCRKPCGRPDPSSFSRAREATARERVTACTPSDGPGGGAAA
# Chain of UniProt P35372 (whole entry, looked up): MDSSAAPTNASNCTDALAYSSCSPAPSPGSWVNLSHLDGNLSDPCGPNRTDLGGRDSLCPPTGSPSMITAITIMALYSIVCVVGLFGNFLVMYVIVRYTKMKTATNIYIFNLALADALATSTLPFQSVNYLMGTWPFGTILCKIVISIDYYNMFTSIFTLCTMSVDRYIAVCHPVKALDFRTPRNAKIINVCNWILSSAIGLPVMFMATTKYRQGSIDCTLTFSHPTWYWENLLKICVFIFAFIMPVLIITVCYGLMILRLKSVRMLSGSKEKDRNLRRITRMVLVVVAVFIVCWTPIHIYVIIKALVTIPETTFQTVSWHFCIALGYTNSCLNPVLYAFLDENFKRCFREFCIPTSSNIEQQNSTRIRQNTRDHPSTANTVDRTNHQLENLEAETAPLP

# Block 1
# Compound: N/C(=N\[N+](=O)[O-])N/N=C\c1ccc(-c2cccc([N+](=O)[O-])c2)o1
# Effect on: enzyme activity
# Action: inhibitor
# Tested at: 0.5 µM
# Baseline: control
target,remaining activity [%]
"SGK2 (Homo sapiens, UniProt Q9HBY8)",101
"DYRK1A (Homo sapiens, UniProt Q13627)",95.8
"PAK1 (Homo sapiens, UniProt Q13153)",91.4
"Cyclin-dependent kinase 5, with p35 (CDK5, Homo sapiens, UniProt Q00535)",89.2
"PAK6 (Homo sapiens, UniProt Q9NQU5)",99
"RPS6KA3 (Homo sapiens, UniProt P51812)",101
"SRPK1 (Homo sapiens, UniProt Q96SB4)",94.9
"CSNK1D (Homo sapiens, UniProt P48730)",99.8
"MARK1 (Homo sapiens, UniProt Q9P0L2)",90.7
"MUSK (Homo sapiens, UniProt O15146)",94.4
"BRSK2 (Homo sapiens, UniProt Q8IWQ3)",106
"TYRO3 (Homo sapiens, UniProt Q06418)",91.5
"ACVRL1 (Homo sapiens, UniProt P37023)",106
"FES (Homo sapiens, UniProt P07332)",101
"PIM1 (Homo sapiens, UniProt P11309)",92.9
"ERBB2 (Homo sapiens, UniProt P04626)",100
"JAK1 (Homo sapiens, UniProt P23458)",102
"PAK4 (Homo sapiens, UniProt O96013)",95.3

# Block 2
# Cell line: HEK-293T-ACE2-TMPRSS2
# Technique: cell count
# Tested at: concentration not given
Structure (SMILES),viability [%]
NC(=O)c1ccc(N2CCN(Cc3ccc(-c4ccccn4)cc3)CC2)nc1,80
CC(=O)c1cc(CN2CCOC(Cc3ccccc3)C2)cs1 (centres unmarked),107
Cc1c(C(=O)OCC(=O)NC(=O)NCc2ccco2)oc2c1ccc1ccccc12,83
c1ccc(-c2cc(CN3CCN(c4ncnc5ccccc45)CC3)on2)cc1,87
Cc1cccc(N2CCN(C(=O)CCCn3c(C)c4cnn(-c5ccccc5)c(=O)c4c3C)CC2)c1C,76
Cc1ccc(-c2cn(CC3CCN(c4cc(C)nc(N)n4)CC3)nn2)cc1,67
Cc1ccc(-n2nnc(C(=O)N3CCN(Cc4ccccc4)CC3)c2-c2cccnc2)cc1,66
C=CCNC(=O)C(CCSC)NC(=O)c1ccco1 (centres unmarked),303
COc1ccc2cc3c(N)nn(C(=O)c4ccccc4Cl)c3nc2c1,118
Cc1csc(NC(=O)c2cn(-c3ccc(-c4noc(C5CC5)n4)cc3)nc2C)n1,65
CCc1cc2c(N3CCCC(C(=O)N4CCN(c5ccccn5)CC4)C3)ncnc2s1 (centres unmarked),65
Cc1ccc(S(=O)(=O)N2CCCCC2)cc1NC(=O)CN1CC(=O)Oc2ccccc21,67
CCOC(=O)C1CCN(S(=O)(=O)c2ccc3c(c2)N(C(C)=O)CCCS3)CC1,74
CCOC(=O)N1CCN(C(=O)CCc2nnc(CCCc3ccccc3)o2)CC1,108
COc1cc(/C=C2/CCS(=O)(=O)c3ccccc3C2=O)cc(OC)c1,84
CCC(CC)n1ncc(C)c1NC(=O)c1cc(Cl)ccc1C,80
CCO[C@H]1COC[C@@H]1NC(=O)c1ccc2c(c1)nnn2C,102
O=S(=O)(Nc1cccc2nc[nH]c12)c1ccc(Oc2ccccc2)cc1,70
O=C(c1ccc(Br)cc1)N1N=CCC1(O)C(F)(F)F (centres unmarked),256
O=C(Nc1ccccc1)N1CCc2cc3ccccc3nc21,78
CC(C)C1CN(C(=O)c2ccc3cccnc3c2O)CCCN1CC1CC1 (centres unmarked),67
Cc1nc2ccccc2n1CC(O)COc1ccc(C(C)(C)C)cc1 (centres unmarked),74
CCN(Cc1ccccc1)S(=O)(=O)c1ccc(C(=O)Nc2nc3c(s2)CN(C)CC3)cc1,66
COc1ccc(-c2cnc(C)o2)cc1S(=O)(=O)N1CCN(CCOc2ccc(Cl)cc2)CC1,67
CC1CCN(C(c2ccccc2)c2oc3ccccc3c2NC(=O)c2ccco2)CC1 (centres unmarked),89

# Block 3
# SMILES: CN(C)C(=O)COC(=O)Cc1ccc(OC(=O)c2ccc(NC(=N)N)cc2)cc1
# Tested at: 10 µM
target,test,inhibition
"Genome polyprotein, NS3 protease (Hepatitis C virus genotype 1b, UniProt Q9WMX2, R1181Q)",,5%
"Genome polyprotein (Hepatitis C virus genotype 1b, UniProt Q9WMX2)","protease activity, inhibitor",11%
"PREP (Homo sapiens, UniProt P48147)",,31%
"Beta-secretase 1 (BACE1, Homo sapiens, UniProt P56817)",,4%
"Genome polyprotein, NS3 protease (Hepatitis C virus genotype 1b, UniProt Q9WMX2, R1181K)",,1%

# Block 4
# Structure (SMILES): Cc1cc(NC(=O)c2cccc(S(F)(F)(F)(F)F)c2)cc(-n2ccn3nc(-c4cccnc4)cc23)c1
# Effect on: ligand displacement
# Technique: radioligand
# Tested at: 10 µM
target,inhibition [%]
"OPRD1 (Homo sapiens, UniProt P41143)",-0.04
"SLC6A4 (Homo sapiens, UniProt P31645)",-17.3
"CHRM3 (Homo sapiens, UniProt P20309)",-11.6
"HTR2A (Homo sapiens, UniProt P28223)",-7.89
"DRD5 (Homo sapiens, UniProt P21918)",34.3
"OPRK1 (Homo sapiens, UniProt P41145)",13.1
"SLC6A3 (Homo sapiens, UniProt Q01959)",25.5
"OPRM1 (Homo sapiens, UniProt P35372)",24.8
"SLC6A2 (Homo sapiens, UniProt P23975)",40.2
"HTR2C (Homo sapiens, UniProt P28335)",-4.02
"CHRM1 (Homo sapiens, UniProt P11229)",21.7
